Results pooled from the literature.
Compare with care: the assays were run in different laboratories.

The inhibition of `CCOC(=O)[C@H](CCc1ccccc1)N[C@@H](C)C(=O)N1Cc2ccccc2C[C@H]1C(=O)O` is reported as 31.7% (Nedd8-cullin1 interaction; neddylation, AlphaScreen; 100 µM).
With `CC1=C(Cn2ccnn2)C(=O)c2ccccc2C1=O` the killing was 42.8% (Schistosoma mansoni; adult worms; 10 µM, 48 h).
`CC(=O)CC(c1ccccc1)c1c(O)c2ccccc2oc1=O` (stereo not drawn) gave an inhibition of 47.2% (Nedd8-cullin1 interaction; neddylation, AlphaScreen; 100 µM).
`CCn1cc(-c2cc(Cn3ccnc3)cc3c2CCN([C@H](c2cc(OC)ccn2)C2CC2)C3=O)c(C(F)(F)F)n1` has an EC50 of greater than 30 µM (NCI-H358; cell growth, inhibitor; 120 h).
`CC1=Nc2ccc(Cl)cc2S(=O)(=O)N1` has an inhibition of -9.9% (Nedd8-cullin1 interaction; neddylation, AlphaScreen; 100 µM).
The killing of `CC1=C(Cn2cc(CN)nn2)C(=O)c2ccccc2C1=O` is reported as 50.4% (Schistosoma mansoni; adult worms; 25 µM, 24 h).
`CC(COc1ccccc1)NC(C)C(O)c1ccc(O)cc1` (stereo not drawn) gave an inhibition of 102% (Nedd8-cullin1 interaction; neddylation, AlphaScreen; 100 µM).
Under “log2 fold change”, `Cn1cc(-c2ccc(-c3cncc(Cl)c3N3CCC4(CCNC4=O)CC3)cc2)cn1` is recorded as -3.1 (COLO 205; gene expression, microarray, measured: ILF3 mRNA; concentration not given, 6 h; reference: untreated cells).
With `CCn1cc(-c2cc(Cn3ccoc3=N)cc3c2CCN([C@@H](C)c2cc(OC)ccn2)C3=O)c(C(F)(F)F)n1` the EC50 was greater than 30 µM (NCI-H2126; cell growth, inhibitor; 120 h).
For `CC1=C(Cn2cc(C(C)(C)O)nn2)C(=O)c2ccccc2C1=O`, the killing was 39.4% (Schistosoma mansoni; adult worms; 10 µM, 24 h).
With `COc1cnc2cccc(N3CCc4c(cc(Cn5ccnc5C)cc4-c4cn(C)nc4C(F)(F)F)C3=O)c2c1` the EC50 was greater than 30 µM (LCLC-97TM1; cell growth, inhibitor; 120 h).
For `CC1=C(Cn2cncn2)C(=O)c2ccccc2C1=O`, the killing was 45.8% (Schistosoma mansoni; adult worms; 25 µM, 48 h).
`CCOC(=O)C1=C(COCCN)NC(C)=C(C(=O)OC)C1c1ccccc1Cl` (stereo not drawn) has an inhibition of -133% (Nedd8-cullin1 interaction; neddylation, AlphaScreen; 100 µM).
`CC1=C(Cn2cc(CO)nn2)C(=O)c2ccccc2C1=O` gave a selectivity index of 6.4 (Schistosoma mansoni; NTS; reference: L6 CC50 over IC50).
The sarcomere length of `O=C(O)CNC(=O)Cc1ccccc1` is reported as 1.72 µm (ventricular cardiomyocytes, C57BL/6 mouse; dose not given, 0.42 s).
